Measured values gathered from unrelated publications.
Lines come from different studies, so protocols differ. ± gives the spread as reported.
Technique: steady-state kinetics
B1: enzyme A178R/D177A/P184R (Levilactobacillus brevis, UniProt Q03Q85); chain MKVTVVGCTHAGTFAIKQILAEHPDAEVTVYERNDVISFLSCGIALYLGGKVADPQGLFYSSPEELQKLGANVQMNHNVLAIDPDQKTVTVEDLTNHAQTTESYDKLVMTSGSWPIVPKIPGIDSDRVKLCKNWAHAQALIEDAKEAKRITVIGAGYIGAELAEAYSTTGHDVTLIARMARVMRKYFDADFTDVIEQDYRDHGVQLALGETVESFTDSATGLTIKTDKNSYETDLAILCIGFRPNTDLLKGKVDMAPNGAIITDDYMRSSNPDIFAAGDSAAVHYNPTHQNAYIPLATNAVRQGILVGKNLVKPTVKYMGTQSSSGLALYDRTIVSTGLTLAAAKQQGLNAEQVIVEDNYRPEFMPSTEPVLMSLVFDPDTHRILGGALMSKYDVSQSANTLSVCIQNENTIDDLAMVDMLFQPNFDRPFNYLNILAQAAQAKVAQSVNA
B2: enzyme (Leishmania major, UniProt E9AE57); chain MSLCDQCEIGCRRVGIKDIEDASAVNADFHFSAIFQPTDPHHHQTEFAKVEGSEKYVEEVEVFGRQALKVNPEALTILAHRAFSDVHHFFRKDHLEGWRRAIEDPEASDNDRYVATTLLKNACIAAGRVLPSCQDTGTAIVLGKRGELCWTGGEDEKYLSKGIWNAYRYHNLRYSQTAALDMFKECNTGDNLPAQLDLLAVPGSDYEFLFIAKGGGSANKAYLYQETKALLNPKSLRAFIEEKLKTLGTAACPPYHIALVIGGTSAEMTMKTVKLASCRYYDSLPTTGDKYGRAFRDPEWEKIVMEVAQKSGIGAQFGGKYFAHQARVIRLPRHGASCPVGLAVSCSADRQILAHINKSGIYIEQLEQNPAQYLPDIPEVHLSTTSVKVDLKRPIDKVRQQLSQYPVGTRVMLNGTLIVARDIAHAKIKEMMDNGEPLPEYMKTSPIYYAGPAKTPEGYASGSFGPTTAGRMDSYVDLFQSHGGSYITLAKGNRSKQVTDACKKHGGFYLGSIGGPAAILAKDSIKQVTCLAFPELGMEAVWKIEVEDFPAFIVVDDKGNDMYSKTLA
B3: enzyme (Triticum aestivum, UniProt A0A6J4BJM5); chain MPATQLPAGEAWDRRRELQAFDDTKAGVKGLVDAGVTALPPIFRHSPESLEGITSSNHVTGAIPTVDLSAARREDTVALVRRAAGTVGFFQVVNHGVPAELMAGMLEGVRRFNEGPAEAKQAIYSRDQARKVRFASNFDLFSSAAANWRDTLFFHLAPDPAPSQELPEAVRDVVTEYGKAVTKVALSVLELLSESLGLSSDHLRDMGCAENLNAVCQYYPPCPEPYLTWGTKRHTDPGFLTVLLQDGMGGLQVLVDHKTWVDVPPVPGAFIINIGDLLQLVSNDQFRSVEHRVLANKSKDTARVSVASFFNTDMERSTRLYGPITDGRNPPIYRSVTARDFIATFNRIGLDGRSLDHYRLDQHTPTPAVEGCE
B4: enzyme P89H (Thermobifida fusca, UniProt Q47RA9); chain MIMIMASKSSPHDLPDVSGLSIAVLGGTGDQGRGLARRFAMAGHEVILGSRSAERAQAVAAELGEGLPVRGMDNAGAAEAGDVVIVAVHWDGHRALLESLKDVLAGKIVVDCVNPLGFDKRGAYALPVEEGSAAEQAAAILPDSRVVAAFHHVSAVLLLDPEVEKVDLDVLVLGDDREATDVVRALAARIPGVRGVYGGRLRNAHQVEAFTANLISINRRYKAHAGIRITDI
B5: DCXR (Homo sapiens, UniProt Q7Z4W1); chain MELFLAGRRVLVTGAGKGIGRGTVQALHATGARVVAVSRTQADLDSLVRECPGIEPVCVDLGDWEATERALGSVGPVDLLVNNAAVALLQPFLEVTKEAFDRSFEVNLRAVIQVSQIVARGLIARGVPGAIVNVSSQCSQRAVTNHSVYCSTKGALDMLTKVMALELGPHKIRVNAVNPTVVMTSMGQATWSDPHKAKTMLNRIPLGKFAEVEHVVNAILFLLSDRSGMTTGSTLPVEGGFWAC
B6: GTPBP3 E159V (Homo sapiens, UniProt Q969Y2); chain TRRSSGAPAPGSGATIFALSSGQGRCGIAVIRTSGPASGHALRILTAPRDLPLARHASLRLLSDPRSGEPLDRALVLWFPGPQSFTGEDCVEFHVHGGPAVVSGVLQALGSVPGLRPAEAGEFTRRAFANGKLNLTEVVGLADLIHAETEAQRRQALRQLDGELGHLCRGWAETLTKALAHVEAYIDFGEDDNLEEGVLEQADIEVRALQVALGAHLRDARRGQRLRSGVHVVVTGPPNAGKSSLVNLLSRKPVSIVSPEPGTTRDVLETPVDLAGFPVLLSDTAGLREGVGPVEQEGVRRARERLEQADLILAMLDASDLASPSSCNFLATVVASVGAQSPSDSSQRLLLVLNKSDLLSPEGPGPGPDLPPHLLLSCLTGEGLDGLLEALRKELAAVCGDPSTDPPLLTRARHQHHLQGCLDALGHYKQSKDLALAAEALRVARGHLTRLTGGGGTEEILDIIFQDFCVGK
B7: enzyme (Clostridium autoethanogenum, UniProt A0ABM5NRF0); chain KGFAMLGINKLGWIEKKNPVPGPYDAIVHPLAVSPCTSDIHTVFEGALGNRENMILGHEAVGEIAEVGSEVKDFKVGDRVIVPCTTPDWRSLEVQAGFQQHSNGMLAGWKFSNFKDGVFADYFHVNDADMNLAILPDEIPLESAVMMTDMMTTGFHGAELADIKMGSSVVVIGIGAVGLMGIAGSKLRGAGRIIGVGSRPVCVETAKFYGATDIVNYKNGDIVEQIMDLTHGKGVDRVIMAGGGAETLAQAVTMVKPGGVISNINYHGSGDTLPIPRVQWGCGMAHKTIRGGLCPGGRLRMEMLRDLVLYKRVDLSKLVTHVFDGAENIEKALLLMKNKPKDLIKSVVTF
Sequence of UniProt Q18B70 (whole entry, looked up): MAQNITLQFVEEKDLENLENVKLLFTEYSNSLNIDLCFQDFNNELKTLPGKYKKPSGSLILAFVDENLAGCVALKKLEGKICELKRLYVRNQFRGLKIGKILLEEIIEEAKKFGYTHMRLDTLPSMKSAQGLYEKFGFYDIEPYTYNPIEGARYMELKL
Sequence of UniProt O60656 (whole entry, looked up): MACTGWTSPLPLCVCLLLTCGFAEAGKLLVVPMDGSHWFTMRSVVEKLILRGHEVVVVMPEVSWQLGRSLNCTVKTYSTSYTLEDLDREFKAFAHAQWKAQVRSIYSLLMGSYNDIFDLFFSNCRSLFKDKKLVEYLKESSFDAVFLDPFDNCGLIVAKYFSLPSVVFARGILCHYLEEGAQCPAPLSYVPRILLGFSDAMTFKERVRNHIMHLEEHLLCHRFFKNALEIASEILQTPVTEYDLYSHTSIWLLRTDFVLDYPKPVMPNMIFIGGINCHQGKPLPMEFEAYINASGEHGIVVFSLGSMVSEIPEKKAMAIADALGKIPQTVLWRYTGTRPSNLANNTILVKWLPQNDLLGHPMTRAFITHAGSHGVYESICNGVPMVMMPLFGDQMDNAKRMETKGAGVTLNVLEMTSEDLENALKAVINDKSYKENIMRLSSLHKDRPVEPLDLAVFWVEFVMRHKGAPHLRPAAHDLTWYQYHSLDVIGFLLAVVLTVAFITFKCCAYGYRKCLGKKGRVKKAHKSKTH
Sequence of UniProt Q8N6T7 (whole entry, looked up): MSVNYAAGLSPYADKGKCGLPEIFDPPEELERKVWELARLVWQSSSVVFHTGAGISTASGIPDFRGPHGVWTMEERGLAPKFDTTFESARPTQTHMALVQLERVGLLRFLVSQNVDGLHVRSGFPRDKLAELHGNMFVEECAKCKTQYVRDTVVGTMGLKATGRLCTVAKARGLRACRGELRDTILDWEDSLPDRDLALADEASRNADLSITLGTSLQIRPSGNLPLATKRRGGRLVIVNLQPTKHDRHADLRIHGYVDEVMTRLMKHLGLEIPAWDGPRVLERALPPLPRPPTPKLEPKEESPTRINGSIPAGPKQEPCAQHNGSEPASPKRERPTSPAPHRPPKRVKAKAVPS
Sequence of UniProt Q8QZR1 (whole entry, looked up): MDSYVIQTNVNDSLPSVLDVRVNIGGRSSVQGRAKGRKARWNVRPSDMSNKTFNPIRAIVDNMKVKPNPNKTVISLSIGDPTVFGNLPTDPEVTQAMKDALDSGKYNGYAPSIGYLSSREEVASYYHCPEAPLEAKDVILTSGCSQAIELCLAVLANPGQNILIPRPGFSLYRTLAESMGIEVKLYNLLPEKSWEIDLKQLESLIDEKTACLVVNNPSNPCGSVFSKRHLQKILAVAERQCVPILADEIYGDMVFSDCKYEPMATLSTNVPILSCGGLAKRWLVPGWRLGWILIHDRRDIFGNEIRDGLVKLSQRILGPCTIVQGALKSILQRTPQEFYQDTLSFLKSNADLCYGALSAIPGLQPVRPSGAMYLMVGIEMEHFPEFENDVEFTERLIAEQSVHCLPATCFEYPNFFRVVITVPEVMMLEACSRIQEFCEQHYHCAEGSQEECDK
Sequence of UniProt Q29437 (whole entry, looked up): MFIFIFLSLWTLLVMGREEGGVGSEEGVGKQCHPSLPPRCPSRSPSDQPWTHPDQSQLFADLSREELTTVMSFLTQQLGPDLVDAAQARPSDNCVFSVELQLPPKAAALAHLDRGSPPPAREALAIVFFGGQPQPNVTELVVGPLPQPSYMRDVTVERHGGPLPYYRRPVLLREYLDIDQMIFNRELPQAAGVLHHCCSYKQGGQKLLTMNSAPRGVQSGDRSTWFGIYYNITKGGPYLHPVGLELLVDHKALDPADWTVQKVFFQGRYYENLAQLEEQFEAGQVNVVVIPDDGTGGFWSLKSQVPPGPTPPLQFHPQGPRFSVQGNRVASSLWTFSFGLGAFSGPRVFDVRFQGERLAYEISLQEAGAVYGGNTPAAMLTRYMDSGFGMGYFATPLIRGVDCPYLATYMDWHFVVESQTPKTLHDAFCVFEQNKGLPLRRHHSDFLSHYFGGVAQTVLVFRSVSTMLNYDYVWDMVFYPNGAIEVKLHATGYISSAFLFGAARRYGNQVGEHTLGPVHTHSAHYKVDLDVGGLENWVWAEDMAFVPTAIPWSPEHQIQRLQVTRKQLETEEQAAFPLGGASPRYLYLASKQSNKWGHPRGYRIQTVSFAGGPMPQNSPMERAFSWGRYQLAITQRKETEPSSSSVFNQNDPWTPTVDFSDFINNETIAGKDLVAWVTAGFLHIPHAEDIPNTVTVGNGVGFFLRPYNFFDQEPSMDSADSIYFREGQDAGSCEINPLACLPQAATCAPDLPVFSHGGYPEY

Substance | substrate | pH | temperature | setting | with | measurement | value
protein (Actinidia deliciosa, UniProt C7SHN9) | CC(C)=CCC/C(C)=C/CC/C(C)=C/CO[P@@](=O)(O)OP(=O)(O)O | pH 7.5 |  |  | FPP 1-100 µM | kcat/Km | 51000 ± 9600 M⁻¹ s⁻¹
B1 (enzyme A178R/D177A/P184R) | NC(=O)C1=CN([C@@H]2O[C@H](COP(=O)(O)OP(=O)(O)OC[C@H]3O[C@@H](n4cnc5c(N)ncnc54)[C@H](OP(=O)(O)O)[C@@H]3O)[C@@H](O)[C@H]2O)C=CC1 | pH 7.5 | 37 °C | per site |  | kcat/Km | 2.9e+06 ± 1.4e+06 M⁻¹ s⁻¹
B2 (enzyme) | O=C(O)C[C@H](O)C(=O)O |  |  |  |  | kcat/Km | 47000 ± 3000 M⁻¹ s⁻¹
protein (Sinorhizobium meliloti, UniProt Q92LZ4) | O=CC(=O)O | pH 7.5 | 25 °C | NaCl 150 mM | NADPH 0.4 mM | kcat/Km | 815 ± 56 M⁻¹ s⁻¹
Tat (Mus musculus, UniProt Q8QZR1) | N[C@@H](Cc1ccccc1)C(=O)O | pH 7 | 38 °C | 100 mM phosphate | 10 mM KGA; PLP | kcat/Km | 1330 M⁻¹ s⁻¹
B3 (enzyme) | O=C1[C@@H](O[C@@H]2O[C@H](CO)[C@@H](O)[C@H](O)[C@H]2O)Oc2ccccc2N1O | pH 7.2 | 30 °C |  |  | kcat/Km | 2000 M⁻¹ s⁻¹
UGT1A9 (Homo sapiens, UniProt O60656) | O=c1cc(-c2ccccc2O)oc2cc(O)ccc12 | pH 7.4 | 37 °C |  |  | Km | 0.65 µM
B4 (enzyme P89H) | NC(=O)c1ccc[n+](CCO)c1 | pH 8 | 25 °C |  |  | kcat/Km | 2.4 ± 0.44 M⁻¹ s⁻¹
B5 (DCXR) | CC(=O)C(C)=O | pH 7 |  |  | NADPH 200 µM | kcat/Km | 33900 M⁻¹ s⁻¹
SIRT6 (Homo sapiens, UniProt Q8N6T7) | CSCC[C@H](NC(=O)[C@H](CC(C)C)NC(=O)[C@H](CCCCNC(C)=O)NC(=O)[C@H](CCCCN)NC(=O)[C@H](Cc1c[nH]cn1)NC(=O)[C@H](CCCNC(=N)N)NC(=O)[C@H](CO)NC(=O)[C@@H](NC(=O)[C@H](CO)NC(=O)[C@H](CCC(N)=O)NC(=O)CNC(=O)[C@H](CCCCN)NC(=O)[C@@H](N)CCCCN)[C@@H](C)O)C(=O)N[C@@H](Cc1ccccc1)C(=O)N[C@@H](CCCCN)C(=O)N[C@H](C(=O)N[C@@H](CCC(=O)O)C(=O)NCC(=O)O)[C@@H](C)O | pH 7.5 | 37 °C |  | NAD+ 800 µM, SIRT6 10 µM | kcat/Km | 0.9 M⁻¹ s⁻¹
B6 (GTPBP3 E159V) | Nc1nc2c(ncn2[C@@H]2O[C@H](COP(=O)(O)OP(=O)(O)OP(=O)(O)O)[C@@H](O)[C@H]2O)c(=O)[nH]1 | pH 8 | 37 °C | KCl 300 mM |  | kcat/Km | 481 M⁻¹ s⁻¹
B7 (enzyme) | NC(=O)C1=CN([C@@H]2O[C@H](COP(=O)(O)OP(=O)(O)OC[C@H]3O[C@@H](n4cnc5c(N)ncnc54)[C@H](OP(=O)(O)O)[C@@H]3O)[C@@H](O)[C@H]2O)C=CC1 | pH 7.5 | 25 °C | cofactor varied |  | kcat/Km | 3.9e+07 M⁻¹ s⁻¹
protein (Clostridioides difficile, UniProt Q18B70) | C[C@@H](O)[C@H](N)C(=O)O | pH 8 | 37 °C |  | AcCoA 1 mM, L-Thr 0-10 mM | kcat/Km | 1400 M⁻¹ s⁻¹
Plasma amine oxidase (Bos taurus, UniProt Q29437) | COc1ccc2cc(CN)ccc2c1 | pH 7.2 | 30 °C |  |  | kcat/Km | 1510 M⁻¹ s⁻¹
